Measurements collected from several papers.
Each line is one published result; not all experiments were run side by side. “And” joins repeats or separate records; there may be more than shown.
FLT3: Receptor-type tyrosine-protein kinase FLT3 (FLT3, Homo sapiens, UniProt P36888)
FLT3 D835H: Receptor-type tyrosine-protein kinase FLT3 (FLT3, Homo sapiens, UniProt P36888, D835H)
FLT3 D835Y: Receptor-type tyrosine-protein kinase FLT3 (FLT3, Homo sapiens, UniProt P36888, D835Y)

O=C(Cc1ccc(OCc2ccccc2)cc1)NC1(C(=O)O)CCN(C(=O)c2ccc(-c3cccc(Cl)c3)cc2)CC1 — activity vs control (FLT3; enzyme activity, inhibitor; 10 µM): 104%
CNC(=O)C[C@H](Cc1ccc(C#N)cc1)NC(=O)c1cc(-c2ccc(CN[C@H](C)c3ccc(C)cc3)o2)ccc1Cl — activity vs control (FLT3; enzyme activity, inhibitor; 1 µM): 103%
Cc1cccc(O[C@H]2CCC[C@@H](C(C)CNCc3ccncc3)C2)c1 (relative stereo) — inhibition (FLT3; enzyme activity, inhibitor; 1 µM): 4%
C=CC(=O)Nc1cccc(-c2cnc3[nH]cc(C(=O)NC(C)(C)C)c3n2)c1 — inhibition (FLT3; enzyme activity, inhibitor; 0.1 µM): 15%
CN1CCN(c2ccc(Nc3ncc(Cl)c(Nc4ccccc4P(C)(C)=O)n3)cc2Br)CC1 — inhibition (FLT3; enzyme activity, inhibitor; 0.1 µM): 82.9%
COc1cc(OC)c(F)c(/C=C/c2cnc3ccn(S(=O)(=O)c4cn(CCF)cn4)c3n2)c1F — inhibition (FLT3; 10 nM): 0%
O=C(Nc1ccc(Oc2ncnc3[nH]cc(-c4ccccc4)c23)c(F)c1)c1c2n(n(-c3cc(F)ccc3F)c1=O)CCCC2 — inhibition (FLT3; enzyme activity, inhibitor; 0.5 µM): 51%
Nc1ncc2c(n1)-c1c([nH]c3ccc(C4=CCOCC4)cc13)CCC2 — remaining binding (FLT3 (Homo sapiens, UniProt P36888, K663Q); binding, competition with immobilised ligand; 1 µM): 100%
CC(C)=CC1OC(C)(C)C2C=C3C(=O)C(Cl)=CC(O)C3C3C(O)C4OC4C(=O)C132 (stereo not shown) — remaining binding (FLT3 D835H; cell-free assay, competition with immobilised ligand; 10 µM): 90%
Cc1cnc2nc1Nc1cccc(c1)COC/C=C/COCc1cc(ccc1OCCN1CCOCC1)N2 — remaining signal (FLT3 (Homo sapiens, UniProt P36888, F691L/ITD); cell-free assay; 0.1 µM): 0%
COc1c(Cl)cccc1Nc1c(-c2ccncc2C#C[C@@]2(C)CCCN2C(=O)/C=C/CN(C)C)[nH]c2c1C(=O)NCC2 — remaining binding (FLT3 D835H; binding, competition with immobilised ligand; 3 µM): 100%
CNC(=O)C1CCN(c2cc(C)c(F)cc2NC(=O)c2ccc(-c3cc(O)ccc3C)c(C)c2)CC1 — remaining binding (FLT3 D835Y; binding, competition with immobilised ligand; 1 µM): 100%
NC(=O)[C@@H](O)C[C@H]1CCc2sc3ncnc(O[C@H]4CC[C@H](N5CCOCC5)CC4)c3c21 — inhibition (FLT3; enzyme activity, inhibitor; 10 µM): 96%
C[C@H]1CN(C(=O)c2cn(-c3ccnc(N)n3)c3cc(C#CC4(O)CCCCC4)ccc23)CCN1 — inhibition (FLT3; enzyme activity, inhibitor, FRET; 1 µM): 14%
COCC12C(=O)NC3C4(C(OC)CC1O)C1CC5(O)C(OC)C(O)C(OC(C)=O)(C1C5OC(=O)c1ccccc1)C3(O)C(OC)C24 (stereo not shown) — remaining activity (FLT3 D835Y; kinase activity, inhibitor, ProQinase kinase profiling; 25 µM; baseline: control): 98% and 104%
O=C=[N][Ru-4]123([n]4c5ccc(O)cc5c5c6c(c7cc(F)c[n+]1c7c54)C(=O)NC6=O)[S+]1CC[S+]2CC[S+]3CC1 (stereo not shown) — remaining activity (FLT3; enzyme activity; 100 nM, human enzyme, together with: 10 µM ATP; baseline: untreated): 32%
